Assay results of several laboratories.
Lines come from different studies, so protocols differ. “And” joins repeats or separate records; there may be more than shown. Numbers after ± are the reported error.
DRD5: D(1B) dopamine receptor (DRD5, Homo sapiens, UniProt P21918)
Urease subunit alpha: Urease subunit alpha (Sporosarcina pasteurii, UniProt P41020)
Sequence of UniProt P41020 (whole entry, looked up): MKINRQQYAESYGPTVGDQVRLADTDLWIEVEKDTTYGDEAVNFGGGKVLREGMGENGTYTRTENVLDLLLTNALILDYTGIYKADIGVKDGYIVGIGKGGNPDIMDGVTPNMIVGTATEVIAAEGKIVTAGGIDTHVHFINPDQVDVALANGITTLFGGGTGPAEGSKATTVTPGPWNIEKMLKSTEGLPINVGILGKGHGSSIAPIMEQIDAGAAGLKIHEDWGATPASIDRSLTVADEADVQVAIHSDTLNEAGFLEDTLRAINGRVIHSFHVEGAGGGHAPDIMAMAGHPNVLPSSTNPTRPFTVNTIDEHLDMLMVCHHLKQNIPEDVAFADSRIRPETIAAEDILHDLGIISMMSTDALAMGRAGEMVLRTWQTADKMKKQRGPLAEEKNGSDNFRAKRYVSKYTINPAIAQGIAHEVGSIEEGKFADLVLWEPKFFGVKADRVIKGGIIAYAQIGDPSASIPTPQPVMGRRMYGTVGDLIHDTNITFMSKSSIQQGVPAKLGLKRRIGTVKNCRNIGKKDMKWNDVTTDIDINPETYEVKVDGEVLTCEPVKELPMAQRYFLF
HTR4: 5-hydroxytryptamine receptor 4 (HTR4, Homo sapiens, UniProt Q13639)
Sequence of UniProt Q13639 (whole entry, looked up): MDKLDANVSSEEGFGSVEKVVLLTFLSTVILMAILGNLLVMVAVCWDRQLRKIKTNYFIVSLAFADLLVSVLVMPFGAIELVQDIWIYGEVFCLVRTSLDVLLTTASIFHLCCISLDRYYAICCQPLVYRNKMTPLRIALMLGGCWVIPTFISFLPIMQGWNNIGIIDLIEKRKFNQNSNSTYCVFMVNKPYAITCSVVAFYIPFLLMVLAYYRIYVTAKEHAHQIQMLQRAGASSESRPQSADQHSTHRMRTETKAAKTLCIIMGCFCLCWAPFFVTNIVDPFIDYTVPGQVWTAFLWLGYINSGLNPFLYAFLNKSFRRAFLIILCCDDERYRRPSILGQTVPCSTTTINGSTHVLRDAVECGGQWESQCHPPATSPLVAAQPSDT
IKBKB: Inhibitor of nuclear factor kappa-B kinase subunit beta (IKBKB, Homo sapiens, UniProt O14920)
Sequence of UniProt O14920 (whole entry, looked up): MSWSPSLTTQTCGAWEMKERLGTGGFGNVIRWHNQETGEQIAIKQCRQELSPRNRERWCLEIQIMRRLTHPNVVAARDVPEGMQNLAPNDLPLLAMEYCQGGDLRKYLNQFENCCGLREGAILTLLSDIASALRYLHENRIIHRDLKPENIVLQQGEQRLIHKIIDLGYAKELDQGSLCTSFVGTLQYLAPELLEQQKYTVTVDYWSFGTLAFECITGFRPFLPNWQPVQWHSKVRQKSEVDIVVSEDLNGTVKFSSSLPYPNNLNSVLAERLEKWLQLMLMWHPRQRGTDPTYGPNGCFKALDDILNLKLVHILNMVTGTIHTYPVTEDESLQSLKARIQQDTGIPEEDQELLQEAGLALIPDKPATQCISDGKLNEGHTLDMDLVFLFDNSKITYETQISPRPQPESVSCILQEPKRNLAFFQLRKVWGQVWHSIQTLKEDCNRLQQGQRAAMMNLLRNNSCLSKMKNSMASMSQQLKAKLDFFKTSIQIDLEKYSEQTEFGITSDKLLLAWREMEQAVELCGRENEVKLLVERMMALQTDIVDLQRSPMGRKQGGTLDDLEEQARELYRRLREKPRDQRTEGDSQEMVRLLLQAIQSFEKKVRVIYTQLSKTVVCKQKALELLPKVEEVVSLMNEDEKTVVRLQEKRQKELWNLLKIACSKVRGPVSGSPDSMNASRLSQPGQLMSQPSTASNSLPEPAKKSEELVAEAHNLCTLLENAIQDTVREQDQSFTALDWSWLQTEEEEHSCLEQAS
HTR1A: 5-hydroxytryptamine receptor 1A (HTR1A, Homo sapiens, UniProt P08908)
MAL12: Alpha-glucosidase MAL12 (MAL12, Saccharomyces cerevisiae S288c, UniProt P53341)
Sequence of UniProt Q8IWT6 (whole entry, unmodified, looked up): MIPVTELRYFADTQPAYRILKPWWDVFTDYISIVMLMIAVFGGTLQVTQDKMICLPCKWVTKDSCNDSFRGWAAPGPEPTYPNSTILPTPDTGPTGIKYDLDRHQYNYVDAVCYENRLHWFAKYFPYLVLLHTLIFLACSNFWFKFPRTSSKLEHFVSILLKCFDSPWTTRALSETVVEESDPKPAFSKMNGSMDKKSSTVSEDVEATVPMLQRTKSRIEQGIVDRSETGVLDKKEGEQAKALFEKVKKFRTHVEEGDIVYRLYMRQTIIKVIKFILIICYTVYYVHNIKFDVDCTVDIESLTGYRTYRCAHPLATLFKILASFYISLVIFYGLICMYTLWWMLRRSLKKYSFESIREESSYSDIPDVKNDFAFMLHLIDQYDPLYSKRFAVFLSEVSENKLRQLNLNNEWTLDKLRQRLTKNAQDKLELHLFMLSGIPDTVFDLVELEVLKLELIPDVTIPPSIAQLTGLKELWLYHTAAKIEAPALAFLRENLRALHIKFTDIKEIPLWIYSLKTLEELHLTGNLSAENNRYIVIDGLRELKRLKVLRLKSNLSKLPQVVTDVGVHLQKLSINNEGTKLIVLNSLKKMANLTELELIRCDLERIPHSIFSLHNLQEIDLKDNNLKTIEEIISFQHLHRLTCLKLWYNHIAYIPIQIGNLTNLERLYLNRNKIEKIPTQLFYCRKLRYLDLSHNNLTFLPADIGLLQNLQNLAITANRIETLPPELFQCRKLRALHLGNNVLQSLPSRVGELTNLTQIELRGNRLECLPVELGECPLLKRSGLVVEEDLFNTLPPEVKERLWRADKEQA
Sequence of UniProt P53341 (whole entry, looked up): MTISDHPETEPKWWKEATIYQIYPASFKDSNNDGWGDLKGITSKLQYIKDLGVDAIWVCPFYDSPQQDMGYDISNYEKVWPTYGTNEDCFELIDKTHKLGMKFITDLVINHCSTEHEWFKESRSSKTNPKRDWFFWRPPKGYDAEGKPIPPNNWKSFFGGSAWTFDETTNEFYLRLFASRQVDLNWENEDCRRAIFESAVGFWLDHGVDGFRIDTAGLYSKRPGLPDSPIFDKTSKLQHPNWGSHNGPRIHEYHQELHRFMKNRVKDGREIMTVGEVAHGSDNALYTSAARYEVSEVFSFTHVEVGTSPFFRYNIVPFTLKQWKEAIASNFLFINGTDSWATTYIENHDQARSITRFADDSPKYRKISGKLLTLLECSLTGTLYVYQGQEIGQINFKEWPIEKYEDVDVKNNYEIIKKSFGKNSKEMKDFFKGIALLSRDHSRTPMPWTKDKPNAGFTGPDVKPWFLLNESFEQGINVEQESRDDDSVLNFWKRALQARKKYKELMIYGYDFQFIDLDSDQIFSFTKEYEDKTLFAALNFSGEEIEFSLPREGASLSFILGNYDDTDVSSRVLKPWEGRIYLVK
Sequence of UniProt Q7RTT9 (whole entry, looked up): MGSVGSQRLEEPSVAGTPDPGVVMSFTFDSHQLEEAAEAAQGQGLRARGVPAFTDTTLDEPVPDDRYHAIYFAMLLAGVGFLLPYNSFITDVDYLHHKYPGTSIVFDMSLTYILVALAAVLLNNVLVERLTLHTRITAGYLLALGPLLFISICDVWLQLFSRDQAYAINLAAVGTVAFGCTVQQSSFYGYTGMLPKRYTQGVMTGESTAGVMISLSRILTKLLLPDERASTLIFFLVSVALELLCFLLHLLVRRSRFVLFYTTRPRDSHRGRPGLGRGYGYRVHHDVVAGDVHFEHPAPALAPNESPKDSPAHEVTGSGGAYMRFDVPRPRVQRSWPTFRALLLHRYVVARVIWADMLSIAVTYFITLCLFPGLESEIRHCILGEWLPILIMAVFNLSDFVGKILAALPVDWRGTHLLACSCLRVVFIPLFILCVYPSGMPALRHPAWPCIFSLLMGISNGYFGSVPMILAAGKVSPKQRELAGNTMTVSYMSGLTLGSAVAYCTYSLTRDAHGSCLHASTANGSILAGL
Sequence of UniProt Q9Y2R2 (whole entry, looked up): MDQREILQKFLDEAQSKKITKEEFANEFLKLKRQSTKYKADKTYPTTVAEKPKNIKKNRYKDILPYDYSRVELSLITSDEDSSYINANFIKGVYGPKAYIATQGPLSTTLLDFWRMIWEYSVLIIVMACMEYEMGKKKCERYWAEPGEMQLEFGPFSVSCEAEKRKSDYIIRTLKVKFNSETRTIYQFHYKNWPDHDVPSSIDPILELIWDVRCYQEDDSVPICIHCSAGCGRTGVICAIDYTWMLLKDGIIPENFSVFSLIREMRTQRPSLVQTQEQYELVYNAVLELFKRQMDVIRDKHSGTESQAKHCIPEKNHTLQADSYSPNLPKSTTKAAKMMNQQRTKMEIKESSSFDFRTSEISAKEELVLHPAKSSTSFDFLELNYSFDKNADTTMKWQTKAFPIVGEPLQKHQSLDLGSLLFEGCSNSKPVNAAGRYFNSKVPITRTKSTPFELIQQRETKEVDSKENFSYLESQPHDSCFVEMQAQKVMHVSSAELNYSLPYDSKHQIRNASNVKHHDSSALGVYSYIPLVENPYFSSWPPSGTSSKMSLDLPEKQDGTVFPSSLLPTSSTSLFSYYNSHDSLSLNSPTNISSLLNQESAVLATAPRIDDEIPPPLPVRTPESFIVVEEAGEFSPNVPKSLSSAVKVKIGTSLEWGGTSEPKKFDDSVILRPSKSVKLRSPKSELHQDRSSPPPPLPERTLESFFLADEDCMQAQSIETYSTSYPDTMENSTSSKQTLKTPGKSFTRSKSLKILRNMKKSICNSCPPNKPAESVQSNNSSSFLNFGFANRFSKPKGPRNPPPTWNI
Sequence of UniProt P08254 (whole entry, looked up): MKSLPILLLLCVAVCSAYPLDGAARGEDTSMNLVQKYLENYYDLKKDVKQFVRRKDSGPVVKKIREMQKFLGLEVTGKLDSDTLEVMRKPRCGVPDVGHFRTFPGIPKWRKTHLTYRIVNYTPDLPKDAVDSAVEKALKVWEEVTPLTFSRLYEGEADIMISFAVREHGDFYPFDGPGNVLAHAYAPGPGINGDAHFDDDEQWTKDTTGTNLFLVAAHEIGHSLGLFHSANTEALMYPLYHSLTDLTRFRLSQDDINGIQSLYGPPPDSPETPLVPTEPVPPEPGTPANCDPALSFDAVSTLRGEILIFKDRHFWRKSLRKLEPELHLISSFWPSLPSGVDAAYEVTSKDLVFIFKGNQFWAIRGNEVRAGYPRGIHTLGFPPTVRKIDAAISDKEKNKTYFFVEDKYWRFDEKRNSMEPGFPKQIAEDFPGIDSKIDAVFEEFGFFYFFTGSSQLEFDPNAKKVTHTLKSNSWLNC

Structure (SMILES) | tested on | test | system | conditions | scale | quantity | value
[2H]c1cc(C)c(NC(=O)c2cnc(Nc3cc(N4CCCCC4)nc(C)n3)s2)c(Cl)c1 | DDR1 (Homo sapiens, UniProt Q08345) |  |  | 0.01 µM |  | inhibition | 30 to 90%
CN1CCN(c2cc(-c3ccncc3)c(-c3ccc4ccccc4c3)nn2)CC1 | TRHR (Homo sapiens, UniProt P34981) | antagonist, FLIPR |  | 10 µM |  | inhibition | 32%
C[C@H]1C(=O)/C(=C/c2ccccc2)[C@H]2C[C@@H]1N(Cc1ccccc1)C[C@@]2(C)O | Mu-type opioid receptor (Cavia porcellus, UniProt A0ACM8Q262) | binding, radioligand binding | guinea pig brain membranes | 1 µM, with: [3H]DAMGO |  | inhibition | 0%
COc1ccccc1N1CCN(CCCCN2CCc3ccccc3C2=O)CC1 | DRD5 | radioligand binding |  | concentration not given, with: [3H]SCH23390 |  | inhibition | 57.1%
CN(C(=O)n1cnc(-c2ccc[n+]([O-])c2)c1)C1CCCCC1 | Nitric oxide synthase 1 (Homo sapiens, UniProt P29475) |  |  | 10 µM |  | inhibition | -4.5%
COc1cccc(NC(=S)N/N=C/C=C/c2ccc(F)cc2)c1 | Urease subunit alpha | enzyme activity, inhibitor, indophenol method |  | concentration not given | relative to: thiourea | inhibition | inactive
CCN1CCN(c2cc(N3CCN(CC)CC3)nc(NCCNc3ccnc4cc(Cl)ccc34)n2)CC1 | COS-7 |  |  | 10 µM, 24 h, 0.1% DMSO, unit not given | relative to: vehicle control | necrotic cells | 0.42 ± 0.21
CCNNC(=O)c1ccc(CN(CC(=O)NCc2ccccc2)C(=O)c2ccc(N(C)C)cc2)cc1 | Stromelysin-1 (MMP3, Homo sapiens, UniProt P08254) | enzyme activity |  | 10 µM |  | inhibition | no inhibition
COc1c(O)cc2c(c1O)C(=O)c1c(cc(C)c(O)c1OC)C2=O | HepaRG co-cultured with HK-2 | MTT |  | 133.33 µM, 48 h | relative to: untreated control | cell viability | 18.2 ± 4.25%
O=C(CN1CCO[C@@H](COc2cccnc2)C1)N1CCc2ccccc21 | HTR4 | radioligand binding |  | concentration not given |  | inhibition | 3.6%
COc1cc(-c2cc(C(C)=O)n3ccccc23)c(OC)cc1Cn1ccnc1 | Bromodomain testis-specific protein, BD1 (BRDT, Homo sapiens, UniProt Q58F21) |  |  | 1 µM |  | inhibition | -16.9%
Cn1cc(-c2cnc3ccc(NC(=O)Nc4ccc(F)c(Br)c4)cc3n2)cn1 | IKBKB | kinase binding, KiNativ profiling, refers to: Lys1 peptide | PANC-1 lysate | 1.25 µM |  | inhibition | 1.2%
C[C@@H]1CCO[C@H]2Cn3cc(C(=O)NCc4ccc(F)cc4F)c(=O)c(O)c3C(=O)N12 | SLC29A4 (Homo sapiens, UniProt Q7RTT9) | transporter uptake, inhibitor, refers to: [14C]MPP+ uptake | MDCK-II transfected with PMAT | up to 100 µM, with: [14C]MPP+ 10 µM |  | inhibition | no inhibition
Cc1cc(O)c2c(c1)C(=O)c1cc(O)cc(O)c1C2=O | HepaRG co-cultured with HK-2 | MTT |  | 133.33 µM, 48 h | relative to: untreated control | cell viability | 27.3 ± 3.11%
O=C(NCCCNS(=O)(=O)c1ccc(OC(F)(F)F)cc1)C1=Cc2ccccc2S1(=O)=O | PTPN22 (Homo sapiens, UniProt Q9Y2R2) | enzyme activity |  | 25 to 30 µM, phosphatase selectivity panel |  | inhibition | no inhibition
CC[C@@H]1[C@H](F)C(=O)N[C@@H]1COc1nccc2cc(C(N)=O)c(OC)cc12 | CDK14 (Homo sapiens, UniProt O94921) | ATP probe binding, KiNativ profiling, refers to: Lys2 probe site | THP-1 cell lysate | 0.2 mM |  | inhibition | -7.5%
COc1ccc(-c2nn(-c3ccc(S(C)(=O)=O)cc3)cc2C=N/N=c2\[nH]c(-c3ccc([N+](=O)[O-])cc3)cs2)cc1 | EGFR (Homo sapiens, UniProt P00533) | kinase activity, inhibitor |  | 100 µM |  | inhibition | 93.1%
O=C(Nc1cccc2c(=O)cc(-c3nnn[nH]3)oc12)c1ccc(OCCCCc2ccccc2)cc1 | Volume-regulated anion channel subunit LRRC8C, part LRRC8A IL1 chimera (LRRC8C, Homo sapiens, UniProt Q8TDW0, L136K) | ion current, inhibitor, whole-cell patch clamp | HCT LRRC8-/- cells | 3 µM, +100 mV |  | inhibition | 92.7% and 89.8% and 80.8% and 92.1%
CCN(Cc1ccccc1C(F)(F)F)C(=O)C1CCN(S(=O)(=O)c2ccc3[nH]ncc3c2)CC1 | rabbit P2X receptor | radioligand binding |  | 10 µM |  | inhibition | 31%
Cc1ccnc(OC[C@H]2CN(CC(=O)N3CCc4ccccc43)CCO2)c1 | DRD5 | radioligand binding |  | concentration not given, with: [3H]SCH23390 |  | inhibition | 16.1%

Structure (SMILES) | tested on | test | system | conditions | scale | quantity | value
CN1CC(Oc2cnc(C#N)cc2-c2ccn3nc(NC(=O)C4CC4)cc3c2)C1 | IKBKB | inhibitor, KinaseProfiler panel |  | 1 µM |  | inhibition | -5%
COc1cccc(OC[C@H]2CN(CCN3CCc4ccccc43)CCO2)c1 | HTR1A | radioligand binding |  | concentration not given, with: [3H]8-OH-DPAT |  | inhibition | 65%
Cc1oc2c(Cn3cnc4ccccc43)c(O)ccc2c(=O)c1C | MAL12 | inhibitor |  | 25 µM |  | inhibition | 8%
COc1cc(C(=O)NS(=O)(=O)c2ccccc2C)ccc1Cc1cn(C)c2ccc(NC(=O)OC3CCCC3)cc12 | LRRC8A/LRRC8C (Homo sapiens, UniProt Q8IWT6+Q8TDW0, L134K/L136K) | ion current, whole-cell patch clamp | HCT LRRC8-/- cells | 100 µM, +100 mV, L134K/L136K heteromers |  | inhibition | 95.6% and 88.6% and 85.2% and 97.7%
COc1ccc(F)cc1C(=O)NCc1ccc(-c2nn([C@@H](C)C(F)(F)F)c(N)c2C(N)=O)cc1 | MAP2K1 (Homo sapiens, UniProt Q02750) | target engagement, competitive chemoproteomics | human PBMCs | 0.1 µM |  | inhibition | -14.1%
Clc1cncc(OC[C@@H]2CN(CCN3CCc4ccccc43)CCO2)c1 | HTR1A | radioligand binding |  | concentration not given, with: [3H]8-OH-DPAT |  | inhibition | 22.4%
Cc1cc2c(cc1N1C(=O)c3cccc4c(CCCO)ccc(c34)C1=O)n(C)c(=O)n2C (racemic) | BRD1 (Homo sapiens, UniProt O95696) | binding, BROMOscan binding |  | 100 nM |  | inhibition | 0%
CCc1ccc(NC(=S)N/N=C/C=C/c2ccc(F)cc2)cc1 | Urease subunit alpha | enzyme activity, indophenol method |  | 500 µM |  | inhibition | 84.2%
CC(C)C[C@H](NC(=O)C[C@H](O)[C@H](CC(C)C)NC(=O)[C@H](Cc1c[nH]cn1)NC(=O)CNC(=O)[C@@H](NC(=O)[C@H](C)NC(=O)[C@H](Cc1c[nH]c2ccccc12)NC(=O)[C@H](CCC(N)=O)NC(=O)[C@@H](Cc1ccccc1)NC(=O)COCCOCCNC(=O)CCC(C(=O)O)N1CCN(CC(=O)O)CCN(CC(=O)O)CCN(CC(=O)O)CC1)C(C)C)C(N)=O (stereo partly drawn) [lutetium-177 labelled] |  |  | female BALB/c nu/nu mice, blood | intravenous, 100 pmol, 90 h, with: PA 300 µg |  | tissue uptake | 0.004 ± 0.002 %ID/g
Cn1cc(-c2ccc(-c3cncc(Cl)c3N3CCC4(CCNC4=O)CC3)cc2)cn1 | COLO 205 | gene expression, microarray, refers to: TNFRSF10B (DR5) mRNA |  | concentration not given, 2 h | relative to: untreated cells | log2 fold change | 1.86
c1cncc(OC[C@H]2CN(CCN3CCc4ccccc43)CCO2)c1 | HTR4 | radioligand binding |  | concentration not given |  | inhibition | 5.6%
Cc1cc(-c2ccnc3[nH]cc(F)c23)cc(F)c1[C@@]1(O)[C@H](C)CN(C2CCS(=O)(=O)CC2)C[C@@H]1C | AKT1 and AKT3 | ATP probe binding, KiNativ, refers to: Lys2 site | HEK293T cell lysate | 10 µM |  | inhibition | 18.7%
O=C(NO)c1ccc(CN2CCCCc3ccccc32)c(F)c1 | HRH4 (Homo sapiens, UniProt Q9H3N8) | radioligand binding, radioligand displacement |  | 10 µM, mean of replicates |  | inhibition | -1.57%
c1ccc(OC[C@@H]2CN(CCN3CCc4ccccc43)CCO2)cc1 | HTR4 | radioligand binding |  | concentration not given |  | inhibition | 10.6%
Cc1cc(C)n(Cc2c(O)ccc3c(=O)c(-c4ccc5c(c4)OCO5)coc23)n1 | MAL12 | inhibitor |  | 25 µM |  | inhibition | 14.5%
CCc1oc2ccccc2c1C(=O)c1cc(Br)c(O)c(Br)c1 | SLC22A12 (Homo sapiens, UniProt Q96S37, L153A) | uric acid uptake | HEK293T transfected with SLC22A12 L153A | 0.5 µM, 10 min, 37 °C, mean, with: [14C]urate 200 µM |  | inhibition | 42.8%
Cc1cc(-c2ccnc3[nH]cc(F)c23)cc(F)c1[C@@]1(O)[C@H](C)CN(C(=O)CN)C[C@@H]1C | AKT2 and AKT3 | ATP probe binding, KiNativ, refers to: ATP loop | HEK293T cell lysate | 1 µM |  | inhibition | -27.1%
Cc1ccc(OC[C@H]2CN(CCN3CCc4ccccc43)CCO2)cn1 | DRD5 | radioligand binding |  | concentration not given, with: [3H]SCH23390 |  | inhibition | 3.5%
O=C(O)CCc1nc(-c2ccccc2)c(-c2ccccc2)o1 | COS-7 |  |  | 100 µM, 24 h, 0.1% DMSO, unit not given | relative to: control | necrosis | 0.7 ± 0.22
